{"data": "Experimental data of several laboratories", "note": "Numbered parts are unrelated; each lists some results of a single study. Numbers after ± are the reported error.", "UniProt P04517, sequence (whole entry, looked up)": "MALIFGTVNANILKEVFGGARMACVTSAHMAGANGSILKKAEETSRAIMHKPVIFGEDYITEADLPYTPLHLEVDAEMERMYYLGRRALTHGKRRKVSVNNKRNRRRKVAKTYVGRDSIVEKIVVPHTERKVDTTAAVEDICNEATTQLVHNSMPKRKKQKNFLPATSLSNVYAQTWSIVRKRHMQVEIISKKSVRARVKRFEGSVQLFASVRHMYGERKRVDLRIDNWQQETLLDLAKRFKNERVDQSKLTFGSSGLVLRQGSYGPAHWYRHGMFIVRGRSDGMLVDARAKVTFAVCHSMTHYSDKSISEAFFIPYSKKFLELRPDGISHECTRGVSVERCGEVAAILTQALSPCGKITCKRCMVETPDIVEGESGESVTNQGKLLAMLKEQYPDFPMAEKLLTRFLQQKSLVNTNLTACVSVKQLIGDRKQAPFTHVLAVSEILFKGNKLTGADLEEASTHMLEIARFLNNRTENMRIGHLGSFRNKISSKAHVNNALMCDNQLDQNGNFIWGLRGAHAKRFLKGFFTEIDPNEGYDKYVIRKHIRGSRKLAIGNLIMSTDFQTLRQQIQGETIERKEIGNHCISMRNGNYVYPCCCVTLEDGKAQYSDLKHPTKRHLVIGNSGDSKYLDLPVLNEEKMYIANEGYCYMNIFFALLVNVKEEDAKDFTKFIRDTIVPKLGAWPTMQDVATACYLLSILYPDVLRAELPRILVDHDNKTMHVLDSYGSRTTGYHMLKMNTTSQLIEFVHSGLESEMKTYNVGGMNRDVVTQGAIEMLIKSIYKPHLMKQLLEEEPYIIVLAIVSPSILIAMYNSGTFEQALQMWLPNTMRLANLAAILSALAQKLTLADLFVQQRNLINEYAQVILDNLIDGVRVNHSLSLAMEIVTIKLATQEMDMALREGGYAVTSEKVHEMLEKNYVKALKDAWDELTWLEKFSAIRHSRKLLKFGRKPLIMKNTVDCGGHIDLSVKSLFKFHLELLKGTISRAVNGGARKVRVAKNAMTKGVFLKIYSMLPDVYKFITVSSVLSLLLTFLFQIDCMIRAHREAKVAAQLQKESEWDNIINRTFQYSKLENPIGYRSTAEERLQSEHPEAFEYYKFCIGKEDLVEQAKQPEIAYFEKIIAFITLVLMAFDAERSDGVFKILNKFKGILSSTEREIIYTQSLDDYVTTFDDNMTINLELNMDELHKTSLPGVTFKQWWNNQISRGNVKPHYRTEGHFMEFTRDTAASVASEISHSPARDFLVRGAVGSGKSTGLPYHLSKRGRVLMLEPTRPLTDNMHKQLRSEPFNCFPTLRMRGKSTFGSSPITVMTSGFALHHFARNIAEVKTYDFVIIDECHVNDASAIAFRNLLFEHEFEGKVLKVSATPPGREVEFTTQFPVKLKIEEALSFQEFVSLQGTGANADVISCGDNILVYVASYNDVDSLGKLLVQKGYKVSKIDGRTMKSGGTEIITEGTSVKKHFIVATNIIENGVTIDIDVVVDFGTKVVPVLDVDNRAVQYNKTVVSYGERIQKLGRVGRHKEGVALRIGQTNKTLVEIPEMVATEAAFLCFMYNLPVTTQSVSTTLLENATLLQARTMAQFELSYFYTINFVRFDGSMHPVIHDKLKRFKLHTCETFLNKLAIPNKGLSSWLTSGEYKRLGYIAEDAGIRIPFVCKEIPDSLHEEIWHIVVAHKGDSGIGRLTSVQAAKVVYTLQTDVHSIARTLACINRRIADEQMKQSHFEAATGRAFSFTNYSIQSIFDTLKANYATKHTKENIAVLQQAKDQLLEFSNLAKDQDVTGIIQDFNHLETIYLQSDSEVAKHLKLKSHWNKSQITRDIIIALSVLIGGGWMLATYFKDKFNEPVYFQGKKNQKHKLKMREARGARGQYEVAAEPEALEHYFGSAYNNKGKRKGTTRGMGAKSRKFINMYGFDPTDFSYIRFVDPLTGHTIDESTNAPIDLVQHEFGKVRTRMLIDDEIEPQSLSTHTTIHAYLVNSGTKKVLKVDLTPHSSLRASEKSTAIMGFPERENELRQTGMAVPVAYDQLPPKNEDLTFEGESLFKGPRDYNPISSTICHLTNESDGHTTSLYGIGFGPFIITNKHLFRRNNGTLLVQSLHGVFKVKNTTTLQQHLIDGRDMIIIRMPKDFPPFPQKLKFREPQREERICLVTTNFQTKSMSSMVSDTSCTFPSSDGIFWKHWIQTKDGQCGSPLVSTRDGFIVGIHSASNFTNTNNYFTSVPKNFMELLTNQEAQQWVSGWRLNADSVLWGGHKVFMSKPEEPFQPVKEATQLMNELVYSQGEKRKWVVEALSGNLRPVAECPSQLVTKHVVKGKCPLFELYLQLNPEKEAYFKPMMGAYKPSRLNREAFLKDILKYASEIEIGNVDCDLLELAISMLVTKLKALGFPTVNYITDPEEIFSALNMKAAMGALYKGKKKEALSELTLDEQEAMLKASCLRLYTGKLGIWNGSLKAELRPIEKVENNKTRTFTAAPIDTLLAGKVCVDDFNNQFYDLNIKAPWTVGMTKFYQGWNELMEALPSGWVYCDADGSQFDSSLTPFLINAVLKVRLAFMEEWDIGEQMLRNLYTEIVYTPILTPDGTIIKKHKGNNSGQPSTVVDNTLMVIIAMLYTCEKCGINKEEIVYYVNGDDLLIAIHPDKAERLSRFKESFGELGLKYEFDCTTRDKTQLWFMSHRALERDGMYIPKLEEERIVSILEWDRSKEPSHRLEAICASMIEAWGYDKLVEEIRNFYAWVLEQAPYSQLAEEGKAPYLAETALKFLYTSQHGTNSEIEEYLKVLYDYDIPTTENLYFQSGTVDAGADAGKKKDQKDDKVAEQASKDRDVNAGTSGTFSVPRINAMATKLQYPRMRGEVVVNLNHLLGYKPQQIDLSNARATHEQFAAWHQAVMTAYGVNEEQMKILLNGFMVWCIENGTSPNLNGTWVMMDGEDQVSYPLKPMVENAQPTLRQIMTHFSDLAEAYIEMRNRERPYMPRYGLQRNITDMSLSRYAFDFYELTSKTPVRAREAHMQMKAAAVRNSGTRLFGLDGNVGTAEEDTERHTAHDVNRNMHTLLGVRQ"}
{"data": "Series 1", "cell line": "MDA-MB-468", "time": "72 h"}
{"Compound": "O=C(NCc1ccc(Cl)cc1)c1cn(Cc2ccc(Cl)cc2)c2ccc(Oc3ccccc3)cc2c1=O", "CC50 [µM]": "> 100"}
{"Compound": "O=C(NCc1ccc(O)cc1)c1cn(Cc2ccc(F)cc2)c2ccc(Oc3ccccc3)cc2c1=O", "CC50 [µM]": "67.2 ± 4.2"}
{"Compound": "O=C(NCc1ccccc1)c1cn(Cc2ccc(C(F)(F)F)cc2)c2ccc(Oc3ccccc3)cc2c1=O", "CC50 [µM]": "83.2 ± 4.36"}
{"data": "Other studies, line by line"}
{"SMILES": "C/C(=C\\c1ccccc1)C(=O)Nc1ncccn1", "target or system": "Candida albicans", "tested at": "concentration not given", "measurement": "antifungal activity", "value": "inactive"}
{"SMILES": "NC(=O)CI", "target or system": "Genome polyprotein, NIa protease (Tobacco etch virus, UniProt P04517)", "read-out": "enzyme activity", "mode": "inhibitor", "measurement": "IC50", "value": "170 µM"}
{"SMILES": "CCOC(=O)C1=C[C@@H](OC(CC)CC)[C@H](NC(C)=O)[C@@H](N)C1", "target or system": "MDCK", "read-out": "cell viability", "time": "2 days", "measurement": "CC50", "value": "> 20 µM"}
